Assay results gathered from unrelated publications.
Numbered parts are unrelated; each lists some results of a single study.

Block 1
Organism: Saccharomyces cerevisiae
Read-out: binding
Technique: yeast competitive growth sequencing
Molecule type: peptide
Strain: cyclin A1-Cln2 strain
Medium: peptide tiling library
Notes: pooled screen
Reading: direction not given
| Molecule | enrichment score |
| --- | --- |
| ALTMEALEDPSPELME | 1.53 |
| AIRKMREDRWAVIAKM | -2.6 |
| NARRSLNFGGSTGT | -0.502 |
| IPMIAKNLMCELDE | -0.657 |
| VRDLSYRLVFLACCVA | -0.872 |
| VKTKKRLNFDDK | -0.695 |
| HRRRLLFACSPPPASQ | -1.89 |
| RRRIKLPESDSSED | 1.69 |
| EAAPPTQEAQGETEPT | 0.434 |
| RNRGPKLNAMLRLGVL | -1.98 |
| RRRRLLFWDKETQI | -1.3 |
| NRLLKLFTRCLTPLVP | -2.5 |

Block 2
Target: RING finger protein unkempt homolog, zinc fingers 1-6, GST-SBP tag (UNK, Homo sapiens, UniProt Q9C0B0, residues 30-357)
Technique: RNA Bind-n-Seq
Molecule type: RNA
Medium: in vitro
Concentration: not given
Notes: RNA with constant flanks, human and mouse sites, ends assumed
Relative to: input RNA pool
Reading: higher = stronger binding
All sequences stand within: GGGAGUUCUACAGUCCGACGAUC … CAACAGAGGAUUGAGCAUCA
Target sequence (chain): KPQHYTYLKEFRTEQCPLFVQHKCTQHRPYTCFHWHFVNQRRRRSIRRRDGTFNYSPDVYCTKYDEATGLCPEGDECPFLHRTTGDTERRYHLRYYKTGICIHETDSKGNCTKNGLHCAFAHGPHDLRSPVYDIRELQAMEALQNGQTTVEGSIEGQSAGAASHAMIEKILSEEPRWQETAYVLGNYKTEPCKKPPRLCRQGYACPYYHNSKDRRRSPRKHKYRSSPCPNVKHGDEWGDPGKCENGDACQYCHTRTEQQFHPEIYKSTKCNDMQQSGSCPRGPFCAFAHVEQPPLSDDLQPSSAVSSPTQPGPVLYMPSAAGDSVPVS
| Oligonucleotide | bound/input enrichment [ratio] |
| --- | --- |
| AUAGUUUUACGAGAUAGCCUUCAUCAACCACAGUAUGUAGAGAAACUAGAAAAGAUUCUUCGCUUUGUCAUAAAAGAAAAAGCUCUGACCUUGCAAGAUCUUGAUAAUAUCUGGGCAGCA | 2.91 |
| GGGCUGUACAGGUCACCCUCUCCCACGGUGCCCGCCGACCCUGGGGUGUCUGUCUCUCUGCGGGUAGGAGGGCGCCAUGGGCGCGCCGCCGCCCGCUCCCCGCAGCCGCCUUUGCGGAGC | 0.0634 |
| AGACGUGCGCCACCACCGCCCACCUUAAAUUCUUACAGAUAAAAACUGUAUAUGUUUAUAAAUAGUUAUAAAGAACUAUUUUAUAUAAUAGCUAUUAUCAUUGUAGAAAUGACUUACAAA | 0.595 |
| GGGCCUCUGUUCAAUACUGACUAUGACAUCCUUAAAAGCAACUUGCAGAACUGCAGCAAAUUUAGUGCUAUACAAUGUGCAGCUGCCGUCCCUAGAGCUCCUGCUGAAUCCUCUUCGUCU | 0.437 |
| CAUGAGCAGCUCAGACAGCAGCAGGAAGAGAUGAGGCAACUAAGGGAAUCCAUUGCUGAACACAAACCUCAUAUUGAUAAGAUACUAAAAAUAGGUCCACAACUAAAGGAGCUAAACCCU | 0.268 |
| CUCUCCGGUCUCCAGAGCCCUAGCGCAGGAUGUUCGUGCUGGUGGAGAUGGUGGACACCGUGCGCAUACCCCCGUGGCAGUUUGAGCGGAAACUCAACGAUUCCAUUGCUGAGGAGCUGA | 0.0939 |
| UGAUGACUGCAUAGCAAACUGGCAGAUACAGUCCCCAUGGUCAGUGGCUGACCAGGGUGUCAUAGGCGCGAUCUCAAUUGCUAGAUGUGAGCACACGCUUGACAGUCUGUUUAGAAAUGU | 0.25 |
| CCUGUAAGCACCUGUUUUUCCAUGGAAUGGGGUUAAUGAGUAGGUAGAAAAGGAAAAGGAAUAAUCAGUAGGAGCUGACAACCAGUGACCAUAUAAGCAGCUGAUUGCCUGUAAUUAGUC | 1.45 |
| UGUCUGGAGGCGAGGCGUCCCAUUACAGAGGAAGGAGCUCCCUAUAUAAGCCUGCCAAAGCUGGCUGCUCCGGCCACAGCCUGCCUACUGUCACGCGUCUCUCCCGCGCGCAGACACACA | 0.432 |
| GAGGAGGACAAAGAGCCCCUCAUCGAGCUCUUCGUCAAGGCUGGCAGUGAUGGUGAAAGCAUAGGAAACUGCCCCUUUUCCCAGAGGCUCUUCAUGAUUCUUUGGCUCAAAGGAGUUGUA | 0.119 |
| GAGUGUGUCGGAAUCCCGUGCUUAAAAUACGCUCUUAAAUUAUUUUCUAGUCUUAUUUUACAAUGUCUCAUUGUAGUCUGUCUUCAACUAUUUUAUCCAAAAUAAACCUCCAGAAGAAAG | 28.9 |

Block 3
Target: RNA binding protein fox-1 homolog 2, RRM domain, GST-SBP tag (RBFOX2, Homo sapiens, UniProt O43251-10, residues 100-194)
Technique: RNA Bind-n-Seq
Molecule type: RNA
Medium: in vitro
Concentration: 365 nM
Notes: natural RNA segment, single round, ends assumed
Relative to: no-protein control
Reading: higher = stronger binding
All sequences stand within: GGGAGUUCUACAGUCCGACGAUC … UGGAAUUCUCGGGUGCCAA
| Oligonucleotide | RBNS enrichment (R) |
| --- | --- |
| UGAUAGAAUUUUAGUUUUAGGAAAAAUUGGUUUGAUUUCUAGCUUUAUUACUAUUAGGUAUGUGAGCUUGGGCAAAUCGCUUAAUCUUUGAGUCUAGUUUUCUCUCAAAA | 0.379 |
| GAUUUAUAGUCCAGAGAAUACUUCUUAAAGUUAGCAAAUGAAAUUAUUACAGAUUAUACGAGUGUACUGCUUUAAAGAUAUUCCAUCAUUUUGCUGGUAAUUUCAGUAAC | 0.467 |
| CCACAGUUCCUGGCUGCCUUUCUCCUGUGUAUGUGUAAAUUCCUUAAUAAAUAUUGCAGGGAAGGACUGUUUGCUUGGCCAUUACUGUGCGUCACUCUUGGAGGAGGGUG | 2.81 |
| UUUUUAAAUUUUUUUACAAAAGGUUUUUAAACAGAUUAGGGUAGGUGAUGGUUUAAAUCAAUUAAGUGGCAUUGGAAACCUAGGGUUUCCUUUUGAUUAAGAGCCUUUUU | 0.568 |
| CUUUGCUUCUUUUAUGUUUGUAAUCUGUAAAUGAACACAUGGCAGAAAAUAACCCCUGAUUGGUAGGAUCAUAGUUCUAAAUGGAAAUGUUUGUAAUUCUUUGAUGUGCU | 1.33 |
| AGUUCUGAGAUGGAAAGUUGAAGGGGGCAAGCAAGACCUCUCCUCAGCCCAUGCCCAGCUGUCAGGAGAGAGGUGCAGGGAGGAAGGCCUUGUGCUGGGACAACCUCUCU | 0.635 |
| CUUCUGUGGAGUUUGGUUCAAAGACUGGUAUGGCAGAUAGAGGCUUGGAUGCAUUUUUCAUCAGGCUCAGUGGCUAGCAUCAGUGAACAUUCAGUUUCAGAGGGACAGUU | 0.986 |
| UGCUUUUAAAAUAAGAUCUCUUUGUAGCCAUCCUGUUAAAUUUGUAAACAAUCUAAUUAAAUGGCAUCAGCACUUUAACCAAUGACGUUUGCAUAGAGAGAAAUGAUUGA | 0.677 |
| UUAGACAGUGCACAUGCUGUUAGGGCUGUCACUAGGGAGUGGCCUUCAUGGAGGGUGGUAACAGCACCUCAGUCCAGCCAAAAUGUUUAGAAACACUCAGUCUCUGGUCC | 0.811 |
| CAUUGUAAGAUUGUGAAGAUAUAUAAAAUUGAUGAAUUAAGAGAAAUUAUGCCACUUUCCUAUAGUUUCUGUGUUCUGUUUAUUGUAUGGUGUAUUCACUCUUGGAAAAU | 0.488 |
| GGGUCAGGGUGGAACAGGGACAGUUUGGUGGUUGCGGGGCCCUGACUCCCUGGGCUCCCCCCUGCCUUCAUCUCACAAGAAACUUCCUGAUGCAUCAAACUUGAGUUUUU | 0.765 |
| AGACUCAUUCUGGAAUCUAGUGUGGGUCAAGCCAACUUCAGGGAGAGGCUGAGCCAGGGUAGGAGUCACAGGAGCAGACGAGGAUGUGGGGUGCCGUGCACAGAGCUCCA | 0.477 |

Block 4
Target: Interferon regulatory factor 3, full length, phosphomimetic (IRF3, Homo sapiens, UniProt Q14653, residues 1-427, S386D/S396D/S398D/S402D/T404D/S405D)
Technique: protein-binding microarray
Molecule type: double-stranded DNA, one strand shown
Medium: in vitro
Concentration: 2540 nM top
Notes: 60-bp whole probe
Added: salmon DNA 0.4 mg/ml
Relative to: random background probes
Reading: higher = stronger binding
All sequences stand within: GCCTAGCAC … GTCTTGATTCGCTTGACGCTGCTG
Target sequence (chain): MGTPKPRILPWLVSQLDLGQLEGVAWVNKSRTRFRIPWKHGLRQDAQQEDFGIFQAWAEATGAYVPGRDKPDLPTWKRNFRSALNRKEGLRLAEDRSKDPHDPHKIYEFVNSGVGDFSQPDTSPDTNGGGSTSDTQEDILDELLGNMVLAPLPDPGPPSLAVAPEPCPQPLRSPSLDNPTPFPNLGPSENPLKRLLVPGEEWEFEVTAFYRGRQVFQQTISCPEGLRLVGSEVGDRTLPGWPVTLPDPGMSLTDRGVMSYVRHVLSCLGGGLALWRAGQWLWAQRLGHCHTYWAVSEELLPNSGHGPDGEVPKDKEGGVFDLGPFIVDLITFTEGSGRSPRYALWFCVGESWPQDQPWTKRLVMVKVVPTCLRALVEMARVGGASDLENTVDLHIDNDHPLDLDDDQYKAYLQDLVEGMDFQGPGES
| Oligonucleotide | fitted relative affinity [z-score] |
| --- | --- |
| TCAGGTTTTCTAATGTTACTGTGCTAG | 1 |
| TTAGAACCGAGTCTCGATTAGTGCTAG | 0.0624 |
| GACGGTATCGACTATGGGGACGTGCTA | 0.44 |
| GACGATATCGGGTATCGTGACGTGCTA | 0.0879 |
| TTAGGGATCGGACTGGGTTAGTGCTAG | -0.22 |
| GAGGGTTTCCTTATCCTGACGTGCTAG | 6.51 |
| TGAACTAGCGGGTCTTGCAGTGTGCTA | -0.595 |
| CCCATTCTCAGCCCTGCGCATGTGCTA | 2.59 |
| GACGCTTTCGGGTATCGAGACGTGCTA | 1.74 |
| GAAGGACTGCTTCTCCTGACGTGCTAG | -0.295 |
| TCAGTTTCGTATCTTCATTGTGTGCTA | 7.72 |
| TTAGGAATCGACTTTCGGTTAGTGCTA | 1.72 |
| GACGGACTTGGGTTTCGGGACGTGCTA | 0.968 |
| TCATAAACTAGAAACTGAACTGTGCTA | 0.163 |
| GACGGTCTCCGTTTCGGGACGTGCTAG | 4.14 |
| TCACTTCTCCCTTTCAGACTGTGCTAG | 3.1 |
| TCACCTGTCCATTCCTTACTGTGCTAG | 1.46 |
| TCATGTCTGCCTTTCAAACTGTGCTAG | 0.396 |
| GACGGATTGGACACTGGGGACGTGCTA | -0.222 |
| GAAGGTATCGGGTTTCGGGACGTGCTA | 2.71 |
| TTATGTATCGGGTTTCGGTTAGTGCTA | 4.13 |

Some of these lines once more (block 4):
| Oligonucleotide | fitted relative affinity [z-score] |
| --- | --- |
| TTAGGAATCGACTTTCGGTTAGTGCTA | 1.72 |
| GACGGACTTGGGTTTCGGGACGTGCTA | 0.968 |
| GACGCTTTCGGGTATCGAGACGTGCTA | 1.74 |
| TGAACTAGCGGGTCTTGCAGTGTGCTA | -0.595 |
| TCATAAACTAGAAACTGAACTGTGCTA | 0.163 |
| GACGATATCGGGTATCGTGACGTGCTA | 0.0879 |
